Measurements of several laboratories.
Numbered parts are unrelated; each lists some results of a single study. Positions count from the first letter of the parent shown.

Sample 1 — technique: protein binding microarray; molecule type: double-stranded DNA, one strand shown; sample: in vitro; concentration: not given; relative to: not given; direction: higher = stronger binding; endpoint: E-score
Target: Histone acetyltransferase KAT6A, winged helix 1, GST fusion (KAT6A, Homo sapiens, UniProt Q92794, residues 1-85)
Setting: 8-mer, flanks averaged, mean of 2 arrays, mostly near background
Target sequence (chain): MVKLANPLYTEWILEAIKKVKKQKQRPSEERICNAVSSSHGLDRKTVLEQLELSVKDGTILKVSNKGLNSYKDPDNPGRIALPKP
GAAGCTCA: -0.213
TCTTCAAA: -0.186
ATTCACCG: 0.212
AAGTACTC: 0.0352
AGGAAGAA: -0.183
CCCTCATA: -0.248
AGAGTAGA: -0.0694

Sample 2 — target: CCNA2, cyclin fold, Cln2 fusion (human); technique: yeast growth competition, sequencing; sample: yeast; setting: strong parent motif; relative to: not given; direction: higher = stronger binding; endpoint: normalised enrichment score
Parent: GMNC docking peptide (human); KNAKRNLSSEFAN; partner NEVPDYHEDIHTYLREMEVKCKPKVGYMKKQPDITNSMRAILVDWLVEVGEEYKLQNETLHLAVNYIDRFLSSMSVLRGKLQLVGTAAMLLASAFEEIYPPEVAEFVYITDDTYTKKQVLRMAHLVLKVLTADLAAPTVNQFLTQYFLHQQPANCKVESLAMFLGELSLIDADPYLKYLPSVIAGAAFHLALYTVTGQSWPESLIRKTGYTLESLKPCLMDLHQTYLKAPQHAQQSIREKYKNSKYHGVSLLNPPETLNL
KNAKRNLMSEFAN [S8M]: 6.58
KNAKRNLSSYFAN [E10Y]: 3.03
KNAKRALSSEFAN [N6A]: 2.79
KNAVRNLSSEFAN [K4V]: 4.8

Sample 3 — technique: RNA Bind-n-Seq; molecule type: RNA; sample: in vitro; concentration: 365 nM; relative to: no-protein control; direction: higher = stronger binding; endpoint: RBNS enrichment (R)
Target: RNA binding protein fox-1 homolog 2, RRM domain, GST-SBP tag (RBFOX2, Homo sapiens, UniProt O43251-10, residues 100-194)
Setting: natural RNA segment, single round, ends assumed
All sequences stand within: GGGAGUUCUACAGUCCGACGAUC … UGGAAUUCUCGGGUGCCAA
Residues (chain): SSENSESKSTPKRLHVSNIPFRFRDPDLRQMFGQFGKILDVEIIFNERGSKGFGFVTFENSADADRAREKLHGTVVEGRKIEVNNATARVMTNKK
GGUGUUCAUGUUAGUUUCUUCAAAACCCUAUCUAAUACUAGGCAAAGUAGCCAAGAGCCUUUUGUUUUGUUUUUAUUUUGAUAAAUUAGUGGAGAAAUGGCAUUUUAAGA: 0.525
UUUGGCAUUCUGCCUUGAUUCCUUCUCAUUGAUGUCCAGGUCAUCUGGAGGCCGGGGGUUCUCAGACCUACCAGUUUCCCUUUAGAAGAACAAAUUUCCAGUUCCUCUAG: 0.295
ACAAAUAUUGCUGUUCCAUGUUCUCCACUUUCAUUUUCCACUACAAAUGAAAAGCAAUUUUUGAGACUGAAUCUGUUGCUAUUUUAAAGGUUAUUGUGGGAAACUGAGCU: 0.483
UUUGAAAAUAAUGAAACCAUGUACCACUGUUUACAUCAUCUGUAGUGAUUUCAUAGAUAAUAUAUUUAAUAUGACAGAUUAUGUUUCAACUCUGUAGAUGUUUAACGUCA: 0.464
GGUCCCUGUGCCCUGGCCUGGGGGAGGGGAACGCGGAACAUGGGGUCGGGAACACAGCCGCUCCCCUCUGCUCUGCACCCCACUCGUGGGGGAACACAGCCGCUCCCCUC: 0.558
UCUGCAGUAGAUUAUAUUUAUCCUAAUCUAUUGAUAUUCUGUUGAUUUGUUUUAAGAGAUAGAACUCUAUUUUUUUGAACUUCCAGAGAAUUGCAUUCAUGGCUUCCACU: 0.555

Other studies, line by line
PhoQ, residues 284 288 289 292 302 303 ALAMYF  fold induction (PhoP, residues 12 14 15 18 19 HLGGL (Escherichia coli, UniProt P23836); Sort-seq, measured: YFP reporter; E. coli; PhoQ-PhoP variant library, added: 10 µM Mg2+; relative to: high Mg2+ state, higher = stronger signaling): 12.8
